Measured values of several laboratories.
Every numbered part comes from another study and shows a few of its results, in no order. Values joined by “and” are separate records of one study, mostly repeats; a detail may differ.
Sequence of UniProt P35916 (whole entry, unmodified, looked up): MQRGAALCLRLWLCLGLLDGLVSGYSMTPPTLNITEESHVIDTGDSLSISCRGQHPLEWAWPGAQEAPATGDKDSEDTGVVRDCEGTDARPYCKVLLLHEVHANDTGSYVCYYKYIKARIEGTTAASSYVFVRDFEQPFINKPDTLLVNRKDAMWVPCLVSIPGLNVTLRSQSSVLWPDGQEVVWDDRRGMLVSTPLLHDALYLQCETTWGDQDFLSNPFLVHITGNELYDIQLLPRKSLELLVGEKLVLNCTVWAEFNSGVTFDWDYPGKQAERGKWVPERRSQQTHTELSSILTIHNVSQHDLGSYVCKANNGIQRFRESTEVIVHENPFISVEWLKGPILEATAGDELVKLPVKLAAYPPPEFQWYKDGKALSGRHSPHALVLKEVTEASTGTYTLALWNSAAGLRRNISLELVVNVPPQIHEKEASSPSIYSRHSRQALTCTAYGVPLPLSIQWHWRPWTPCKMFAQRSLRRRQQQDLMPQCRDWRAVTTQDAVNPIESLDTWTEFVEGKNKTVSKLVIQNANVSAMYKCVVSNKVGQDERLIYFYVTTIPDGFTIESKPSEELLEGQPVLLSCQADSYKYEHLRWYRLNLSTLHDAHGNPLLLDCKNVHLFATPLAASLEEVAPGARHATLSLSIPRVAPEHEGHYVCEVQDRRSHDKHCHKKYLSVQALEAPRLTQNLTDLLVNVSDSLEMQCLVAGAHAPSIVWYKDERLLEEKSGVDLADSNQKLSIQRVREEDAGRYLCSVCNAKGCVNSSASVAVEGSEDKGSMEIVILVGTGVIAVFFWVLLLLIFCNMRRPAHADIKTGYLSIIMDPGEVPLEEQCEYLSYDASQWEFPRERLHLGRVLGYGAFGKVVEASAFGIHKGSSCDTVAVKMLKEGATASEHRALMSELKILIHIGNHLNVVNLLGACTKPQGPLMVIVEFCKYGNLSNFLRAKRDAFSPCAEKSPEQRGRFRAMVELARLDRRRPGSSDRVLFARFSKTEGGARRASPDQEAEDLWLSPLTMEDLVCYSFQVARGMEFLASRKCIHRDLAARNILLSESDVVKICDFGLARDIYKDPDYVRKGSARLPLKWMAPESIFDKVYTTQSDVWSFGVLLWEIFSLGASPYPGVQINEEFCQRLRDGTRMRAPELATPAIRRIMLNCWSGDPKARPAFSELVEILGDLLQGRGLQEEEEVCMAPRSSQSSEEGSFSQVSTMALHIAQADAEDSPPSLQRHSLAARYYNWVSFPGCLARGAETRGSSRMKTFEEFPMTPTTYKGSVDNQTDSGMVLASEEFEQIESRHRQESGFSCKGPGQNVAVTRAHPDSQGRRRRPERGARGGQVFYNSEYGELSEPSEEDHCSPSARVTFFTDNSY
Sequence of UniProt Q9Y5N1 (whole entry, looked up): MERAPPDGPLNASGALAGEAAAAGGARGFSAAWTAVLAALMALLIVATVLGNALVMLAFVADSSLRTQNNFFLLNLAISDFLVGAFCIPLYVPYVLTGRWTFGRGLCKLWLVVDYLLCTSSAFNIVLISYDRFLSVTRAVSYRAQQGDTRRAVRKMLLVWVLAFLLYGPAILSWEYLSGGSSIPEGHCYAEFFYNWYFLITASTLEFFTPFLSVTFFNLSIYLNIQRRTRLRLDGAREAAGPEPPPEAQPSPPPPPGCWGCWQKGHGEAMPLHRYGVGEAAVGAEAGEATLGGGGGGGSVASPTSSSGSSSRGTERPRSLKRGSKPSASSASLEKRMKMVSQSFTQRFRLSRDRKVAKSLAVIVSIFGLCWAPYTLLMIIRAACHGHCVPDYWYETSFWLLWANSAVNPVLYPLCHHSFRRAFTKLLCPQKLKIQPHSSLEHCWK
Sequence of UniProt Q13237 (whole entry, looked up): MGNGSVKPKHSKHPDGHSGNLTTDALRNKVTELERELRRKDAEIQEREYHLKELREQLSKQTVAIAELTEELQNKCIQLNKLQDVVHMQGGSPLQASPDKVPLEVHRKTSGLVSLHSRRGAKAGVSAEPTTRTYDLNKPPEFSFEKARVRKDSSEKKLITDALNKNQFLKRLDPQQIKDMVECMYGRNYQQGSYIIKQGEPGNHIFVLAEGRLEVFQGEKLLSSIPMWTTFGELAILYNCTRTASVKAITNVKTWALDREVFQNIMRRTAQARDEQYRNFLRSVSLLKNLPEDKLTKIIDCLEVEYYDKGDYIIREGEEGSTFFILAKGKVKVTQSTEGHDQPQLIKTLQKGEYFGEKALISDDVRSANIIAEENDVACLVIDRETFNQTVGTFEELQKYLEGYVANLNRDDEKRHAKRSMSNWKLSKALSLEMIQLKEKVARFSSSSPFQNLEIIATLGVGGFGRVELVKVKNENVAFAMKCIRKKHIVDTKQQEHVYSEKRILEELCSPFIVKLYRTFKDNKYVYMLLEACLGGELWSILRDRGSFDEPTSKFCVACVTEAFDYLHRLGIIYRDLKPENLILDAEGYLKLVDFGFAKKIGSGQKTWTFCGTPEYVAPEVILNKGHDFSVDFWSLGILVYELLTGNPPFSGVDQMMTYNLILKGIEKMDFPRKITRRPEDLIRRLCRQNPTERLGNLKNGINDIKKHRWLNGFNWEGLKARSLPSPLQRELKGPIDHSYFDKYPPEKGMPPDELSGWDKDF
Sequence of UniProt P28566 (whole entry, looked up): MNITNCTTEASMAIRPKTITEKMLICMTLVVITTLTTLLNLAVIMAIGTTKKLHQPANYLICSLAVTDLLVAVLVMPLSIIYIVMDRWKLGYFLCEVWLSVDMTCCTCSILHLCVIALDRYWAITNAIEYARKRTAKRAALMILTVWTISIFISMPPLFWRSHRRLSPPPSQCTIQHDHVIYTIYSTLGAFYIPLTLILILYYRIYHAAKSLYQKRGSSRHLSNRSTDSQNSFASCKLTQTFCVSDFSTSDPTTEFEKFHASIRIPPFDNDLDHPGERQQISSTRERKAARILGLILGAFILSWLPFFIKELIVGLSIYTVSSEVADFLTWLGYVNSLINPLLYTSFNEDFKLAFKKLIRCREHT
Sequence of UniProt P25021 (whole entry, looked up): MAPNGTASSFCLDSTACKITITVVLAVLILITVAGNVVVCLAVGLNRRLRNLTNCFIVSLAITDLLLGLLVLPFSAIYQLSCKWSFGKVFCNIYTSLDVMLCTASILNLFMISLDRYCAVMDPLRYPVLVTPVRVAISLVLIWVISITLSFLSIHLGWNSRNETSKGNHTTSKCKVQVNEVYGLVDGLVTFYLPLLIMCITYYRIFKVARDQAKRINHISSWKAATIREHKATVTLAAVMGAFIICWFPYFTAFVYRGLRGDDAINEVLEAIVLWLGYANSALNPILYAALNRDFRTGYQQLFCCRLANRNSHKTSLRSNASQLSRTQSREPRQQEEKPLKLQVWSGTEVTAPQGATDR
Sequence of UniProt P18089 (whole entry, looked up): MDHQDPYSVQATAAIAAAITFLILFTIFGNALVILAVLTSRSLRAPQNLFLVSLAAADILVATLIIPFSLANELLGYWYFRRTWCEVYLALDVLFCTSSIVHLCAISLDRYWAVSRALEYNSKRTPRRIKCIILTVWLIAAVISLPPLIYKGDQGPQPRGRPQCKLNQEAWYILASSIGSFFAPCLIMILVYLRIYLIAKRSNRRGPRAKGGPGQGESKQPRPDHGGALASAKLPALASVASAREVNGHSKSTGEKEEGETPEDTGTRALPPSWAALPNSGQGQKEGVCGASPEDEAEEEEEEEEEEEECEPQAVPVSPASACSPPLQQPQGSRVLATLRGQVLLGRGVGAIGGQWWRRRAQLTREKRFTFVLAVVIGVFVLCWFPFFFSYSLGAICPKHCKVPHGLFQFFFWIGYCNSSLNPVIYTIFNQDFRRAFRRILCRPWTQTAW
Sequence of UniProt P14416 (whole entry, looked up): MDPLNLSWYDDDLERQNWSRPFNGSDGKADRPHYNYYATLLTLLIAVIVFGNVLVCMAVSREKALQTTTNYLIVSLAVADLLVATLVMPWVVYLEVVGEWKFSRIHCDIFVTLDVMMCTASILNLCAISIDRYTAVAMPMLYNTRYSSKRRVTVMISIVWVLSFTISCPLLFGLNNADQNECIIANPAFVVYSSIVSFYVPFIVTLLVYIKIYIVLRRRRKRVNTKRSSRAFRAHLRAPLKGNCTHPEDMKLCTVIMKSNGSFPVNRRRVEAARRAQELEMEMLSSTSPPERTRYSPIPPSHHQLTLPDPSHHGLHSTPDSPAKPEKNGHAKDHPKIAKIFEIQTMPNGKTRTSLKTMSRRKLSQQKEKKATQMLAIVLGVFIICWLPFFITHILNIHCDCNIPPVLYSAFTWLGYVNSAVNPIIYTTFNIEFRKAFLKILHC

Study 1
SMILES: Cc1ncc(-c2cc3cc(-c4c(C)ccc(O)c4C)cnc3[nH]2)cn1
Target: Membrane-associated tyrosine- and threonine-specific cdc2-inhibitory kinase (PKMYT1, Homo sapiens, UniProt Q99640)
Measurement: inhibition
Residues (Q99640 1-499): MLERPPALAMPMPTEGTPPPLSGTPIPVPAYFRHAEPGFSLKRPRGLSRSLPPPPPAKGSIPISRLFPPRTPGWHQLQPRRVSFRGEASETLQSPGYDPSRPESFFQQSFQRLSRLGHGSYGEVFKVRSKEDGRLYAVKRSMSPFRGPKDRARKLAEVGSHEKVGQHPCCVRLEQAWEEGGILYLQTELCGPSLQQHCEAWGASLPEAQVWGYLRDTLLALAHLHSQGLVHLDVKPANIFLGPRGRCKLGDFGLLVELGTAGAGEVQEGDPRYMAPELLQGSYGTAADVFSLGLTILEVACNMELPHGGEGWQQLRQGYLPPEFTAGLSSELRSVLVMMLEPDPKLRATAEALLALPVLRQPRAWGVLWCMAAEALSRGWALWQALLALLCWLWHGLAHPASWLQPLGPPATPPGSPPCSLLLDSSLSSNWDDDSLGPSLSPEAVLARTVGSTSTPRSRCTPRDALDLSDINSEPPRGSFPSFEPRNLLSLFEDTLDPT
0.000508 µM: 3.71% and -4.67%
0.00051 µM: -4.67% and 3.71%
1.111 µM: 102%
0.04115 µM: 69.8%
0.3704 µM: 99.8%
10 µM: 102%
0.00457 µM: 14.7%

Study 2
Compound: N#CN1CC[C@H](C(=O)Nc2nc3c(s2)CN(C(=O)CN=[N+]=[N-])CC3)C1
Tested at: 10 µM
Measurement: inhibition
Muscarinic acetylcholine receptor M4 (CHRM4, Homo sapiens, UniProt P08173); ligand displacement: 4.84%
D(1A) dopamine receptor (DRD1, Homo sapiens, UniProt P21728); ligand displacement: -15.9%
5-hydroxytryptamine receptor 1E (HTR1E, Homo sapiens, UniProt P28566); cell-free assay: 2.35%
D(2) dopamine receptor (DRD2, Homo sapiens, UniProt P14416); ligand displacement: 0.55%
Histamine H2 receptor (HRH2, Homo sapiens, UniProt P25021); ligand displacement: 0.58%
Alpha-2B adrenergic receptor (ADRA2B, Homo sapiens, UniProt P18089); ligand displacement: -1.02%
Histamine H3 receptor (HRH3, Homo sapiens, UniProt Q9Y5N1); ligand displacement: -5.98%
Beta-3 adrenergic receptor (ADRB3, Homo sapiens, UniProt P13945); ligand displacement: -3.31%

Study 3
Target: Ribosomal protein S6 kinase alpha-6 (RPS6KA6, Homo sapiens, UniProt Q9UK32)
Sequence of UniProt Q9UK32 (whole entry, looked up): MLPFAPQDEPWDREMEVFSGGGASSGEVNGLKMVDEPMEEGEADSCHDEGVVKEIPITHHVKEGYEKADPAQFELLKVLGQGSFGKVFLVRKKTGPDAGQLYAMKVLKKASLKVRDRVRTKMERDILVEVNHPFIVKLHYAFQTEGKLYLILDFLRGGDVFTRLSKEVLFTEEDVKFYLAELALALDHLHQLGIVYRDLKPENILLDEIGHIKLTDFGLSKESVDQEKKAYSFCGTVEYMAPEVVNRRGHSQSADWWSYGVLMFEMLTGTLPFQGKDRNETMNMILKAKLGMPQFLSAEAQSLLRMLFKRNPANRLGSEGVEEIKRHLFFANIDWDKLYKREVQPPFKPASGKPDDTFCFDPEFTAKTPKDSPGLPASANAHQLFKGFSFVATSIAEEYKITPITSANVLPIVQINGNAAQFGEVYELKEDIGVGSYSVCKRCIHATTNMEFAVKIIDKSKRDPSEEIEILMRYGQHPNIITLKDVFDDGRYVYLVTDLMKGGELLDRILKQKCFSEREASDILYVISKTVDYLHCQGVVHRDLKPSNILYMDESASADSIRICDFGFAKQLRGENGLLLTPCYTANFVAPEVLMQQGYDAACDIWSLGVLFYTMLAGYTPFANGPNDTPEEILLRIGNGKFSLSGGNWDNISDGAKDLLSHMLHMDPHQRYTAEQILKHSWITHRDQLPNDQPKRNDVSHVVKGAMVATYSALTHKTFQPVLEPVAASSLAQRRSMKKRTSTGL
Effect on: enzyme activity
Mode: inhibitor
Tested at: 0.5 µM
Relative to: control
Measurement: remaining activity
COc1ccc(C(=O)Nc2sc3c(c2C(N)=O)CCCC3)cc1OC: 98.5%
Cn1sc(=O)n(Cc2ccccc2)c1=O: 104%
Cc1nc(-c2ccccc2)c(-c2ccncc2)o1: 115%
CNC(=O)c1cc(Oc2ccc(NC(=O)Nc3ccc(Cl)c(C(F)(F)F)c3)cc2)ccn1: 97.3%
COc1cc2ncnc(Nc3ccc(Oc4ccccc4)cc3)c2cc1OC: 111%
Cc1ccc(NC(=O)c2ccc(CN3CCN(C)CC3)cc2)cc1Nc1nc(-c2cccnc2)cs1: 103%
COc1cc2nccc(Oc3ccc(NC(=S)NC(=O)c4ccccc4C)cc3)c2cc1OC: 93%
O=C1NC(=O)C(c2cn(CCCO)c3ncccc23)=C1c1cnccn1: 73%
OCC(O)CCON=C1C(c2c(O)[nH]c3ccccc23)=Nc2ccccc21 (stereo not shown): 16.4%
COc1ccc(OC)c2c(=S)c3ccccc3[nH]c12: 85.2%
CC(C)[C@H](CO)Nc1nc(Nc2cc(N)cc(Cl)c2)c2ncn(C(C)C)c2n1: 46.1%
O=c1c2ccccc2[nH]c(=S)n1CCN1CCC(=C(c2ccc(F)cc2)c2ccc(F)cc2)CC1: 101%
C#Cc1cccc(Nc2ncnc3cc(OCCOC)c(OCCOC)cc23)c1: 99.1%
O=C1NC(=O)C(c2cn(CCCn3ccnc3)c3ccccc23)=C1Nc1ccccc1: 2%
COc1ccc(CNC(=O)Nc2ncc([N+](=O)[O-])s2)cc1: 99.8%

Study 4
Structure (SMILES): COc1cc(/C=C(\C#N)C(=O)c2ccc(O)c(O)c2)cc(I)c1O
Mode: inhibitor
Tested at: 5 µM
Measurement: log2 fold change
Vascular endothelial growth factor receptor 3 (FLT4, Homo sapiens, UniProt P35916, P1114L); cell-based translocation; human cells; hereditary lymphedema type 1A variant; relative to: vehicle: 0.921
cGMP-dependent protein kinase 2 (PRKG2, Homo sapiens, UniProt Q13237); kinase activity; cell-based kinome screen; relative to: vehicle: 0.019
Mitogen-activated protein kinase 4 (MAPK4, Homo sapiens, UniProt P31152); cell-based kinome screen; human cells; relative to: untreated control: -0.168 log2
Tyrosine-protein kinase Blk (BLK, Homo sapiens, UniProt P51451); cell-based kinome profiling; human cells; relative to: vehicle control: 0.302
Insulin-like growth factor 1 receptor (IGF1R, Homo sapiens, UniProt P08069); cell-based kinome screen; human cells; relative to: vehicle: 0.121
Receptor tyrosine-protein kinase erbB-4 (ERBB4, Homo sapiens, UniProt Q15303, E836K); kinase–CDC37 interaction; ERBB4 E836K oncogenic mutant; relative to: vehicle control: -0.075
Ribosomal protein S6 kinase alpha-1 (RPS6KA1, Homo sapiens, UniProt Q15418); kinase-CDC37 interaction; human cells; relative to: vehicle: 0.144

For quick reference, copied from above (study 3):
COc1cc2ncnc(Nc3ccc(Oc4ccccc4)cc3)c2cc1OC: 111%
COc1ccc(CNC(=O)Nc2ncc([N+](=O)[O-])s2)cc1: 99.8%
